# Experimental data of several laboratories.
# Numbered parts are unrelated; each lists some results of a single study.
# UniProt P21673, sequence (whole entry, looked up): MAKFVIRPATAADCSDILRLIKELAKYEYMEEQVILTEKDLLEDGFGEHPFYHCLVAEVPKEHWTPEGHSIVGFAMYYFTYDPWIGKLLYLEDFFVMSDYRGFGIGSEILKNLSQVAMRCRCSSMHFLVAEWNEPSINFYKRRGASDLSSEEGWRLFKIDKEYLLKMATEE
# UniProt P78368, sequence (whole entry, looked up): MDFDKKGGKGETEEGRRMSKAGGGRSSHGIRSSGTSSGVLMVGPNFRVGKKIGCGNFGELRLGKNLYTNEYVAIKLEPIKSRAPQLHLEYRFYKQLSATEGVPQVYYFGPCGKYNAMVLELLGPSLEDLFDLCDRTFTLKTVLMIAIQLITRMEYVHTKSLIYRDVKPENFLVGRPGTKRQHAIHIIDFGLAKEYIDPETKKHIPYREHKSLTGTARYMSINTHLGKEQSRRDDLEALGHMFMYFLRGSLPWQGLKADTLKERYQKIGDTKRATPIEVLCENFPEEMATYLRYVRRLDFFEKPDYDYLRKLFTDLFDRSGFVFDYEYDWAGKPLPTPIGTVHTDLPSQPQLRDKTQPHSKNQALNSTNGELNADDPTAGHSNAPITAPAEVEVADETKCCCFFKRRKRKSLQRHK
# UniProt P10398, sequence (whole entry, looked up): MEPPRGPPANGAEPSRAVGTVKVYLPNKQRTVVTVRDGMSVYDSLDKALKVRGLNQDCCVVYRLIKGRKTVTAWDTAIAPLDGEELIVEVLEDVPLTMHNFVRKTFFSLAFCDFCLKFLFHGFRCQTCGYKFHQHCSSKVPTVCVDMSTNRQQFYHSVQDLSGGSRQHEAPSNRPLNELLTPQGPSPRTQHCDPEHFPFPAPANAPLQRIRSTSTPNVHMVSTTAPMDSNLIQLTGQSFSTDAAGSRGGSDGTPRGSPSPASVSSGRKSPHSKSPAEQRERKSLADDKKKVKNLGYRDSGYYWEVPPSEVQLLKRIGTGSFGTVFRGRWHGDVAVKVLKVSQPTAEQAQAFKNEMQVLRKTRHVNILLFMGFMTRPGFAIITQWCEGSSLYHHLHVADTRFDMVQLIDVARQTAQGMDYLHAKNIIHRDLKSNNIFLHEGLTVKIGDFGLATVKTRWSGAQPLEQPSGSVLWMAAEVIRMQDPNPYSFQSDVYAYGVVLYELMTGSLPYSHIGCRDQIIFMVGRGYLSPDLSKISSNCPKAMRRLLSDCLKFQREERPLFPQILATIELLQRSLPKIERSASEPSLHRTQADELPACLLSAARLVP
# UniProt P36896, sequence (whole entry, looked up): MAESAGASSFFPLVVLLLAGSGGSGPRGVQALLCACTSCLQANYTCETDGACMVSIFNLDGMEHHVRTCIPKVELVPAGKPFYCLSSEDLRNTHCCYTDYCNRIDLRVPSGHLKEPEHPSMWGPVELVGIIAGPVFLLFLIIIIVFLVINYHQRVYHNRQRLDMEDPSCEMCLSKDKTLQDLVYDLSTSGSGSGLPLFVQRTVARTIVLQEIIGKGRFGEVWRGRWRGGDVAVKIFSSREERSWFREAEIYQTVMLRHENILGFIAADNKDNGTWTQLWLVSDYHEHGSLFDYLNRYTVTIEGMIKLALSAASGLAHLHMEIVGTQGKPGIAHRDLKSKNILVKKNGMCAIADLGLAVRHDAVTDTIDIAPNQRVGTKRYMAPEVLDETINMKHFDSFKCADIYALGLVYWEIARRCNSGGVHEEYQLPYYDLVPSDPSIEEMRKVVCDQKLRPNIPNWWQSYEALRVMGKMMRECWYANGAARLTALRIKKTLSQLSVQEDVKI
# UniProt Q9UL54, sequence (whole entry, looked up): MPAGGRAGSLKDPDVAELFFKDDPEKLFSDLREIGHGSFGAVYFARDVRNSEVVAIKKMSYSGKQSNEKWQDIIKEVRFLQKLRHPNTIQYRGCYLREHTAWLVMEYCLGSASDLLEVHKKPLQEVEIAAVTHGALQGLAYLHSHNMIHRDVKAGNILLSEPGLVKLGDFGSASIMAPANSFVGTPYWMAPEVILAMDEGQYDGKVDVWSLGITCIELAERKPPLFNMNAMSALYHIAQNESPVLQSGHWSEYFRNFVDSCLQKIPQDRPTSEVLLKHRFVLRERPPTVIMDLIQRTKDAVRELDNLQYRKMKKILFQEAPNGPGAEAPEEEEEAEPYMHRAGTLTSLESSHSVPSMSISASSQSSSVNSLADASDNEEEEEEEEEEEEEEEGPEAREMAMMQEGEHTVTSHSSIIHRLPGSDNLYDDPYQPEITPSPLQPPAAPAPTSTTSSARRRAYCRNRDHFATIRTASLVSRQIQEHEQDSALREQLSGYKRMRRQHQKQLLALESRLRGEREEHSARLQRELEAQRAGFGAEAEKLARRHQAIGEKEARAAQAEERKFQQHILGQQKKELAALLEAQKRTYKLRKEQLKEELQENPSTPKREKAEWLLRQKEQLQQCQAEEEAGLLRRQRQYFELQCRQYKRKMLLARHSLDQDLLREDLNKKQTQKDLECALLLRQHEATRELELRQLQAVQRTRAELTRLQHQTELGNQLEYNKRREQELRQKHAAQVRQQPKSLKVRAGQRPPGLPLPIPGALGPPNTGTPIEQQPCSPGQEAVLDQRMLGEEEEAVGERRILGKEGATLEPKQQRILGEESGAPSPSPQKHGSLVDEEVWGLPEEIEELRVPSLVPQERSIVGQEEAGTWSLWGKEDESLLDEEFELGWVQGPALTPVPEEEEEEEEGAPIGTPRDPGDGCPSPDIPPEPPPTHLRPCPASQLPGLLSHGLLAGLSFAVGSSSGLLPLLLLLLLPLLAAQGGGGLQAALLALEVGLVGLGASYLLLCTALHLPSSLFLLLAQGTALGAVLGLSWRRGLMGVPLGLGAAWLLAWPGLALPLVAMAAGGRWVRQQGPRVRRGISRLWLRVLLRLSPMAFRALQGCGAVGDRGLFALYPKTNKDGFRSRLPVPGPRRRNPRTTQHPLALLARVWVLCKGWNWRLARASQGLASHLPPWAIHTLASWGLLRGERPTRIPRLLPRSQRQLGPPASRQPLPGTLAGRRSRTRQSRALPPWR
# UniProt P42685, sequence (whole entry, looked up): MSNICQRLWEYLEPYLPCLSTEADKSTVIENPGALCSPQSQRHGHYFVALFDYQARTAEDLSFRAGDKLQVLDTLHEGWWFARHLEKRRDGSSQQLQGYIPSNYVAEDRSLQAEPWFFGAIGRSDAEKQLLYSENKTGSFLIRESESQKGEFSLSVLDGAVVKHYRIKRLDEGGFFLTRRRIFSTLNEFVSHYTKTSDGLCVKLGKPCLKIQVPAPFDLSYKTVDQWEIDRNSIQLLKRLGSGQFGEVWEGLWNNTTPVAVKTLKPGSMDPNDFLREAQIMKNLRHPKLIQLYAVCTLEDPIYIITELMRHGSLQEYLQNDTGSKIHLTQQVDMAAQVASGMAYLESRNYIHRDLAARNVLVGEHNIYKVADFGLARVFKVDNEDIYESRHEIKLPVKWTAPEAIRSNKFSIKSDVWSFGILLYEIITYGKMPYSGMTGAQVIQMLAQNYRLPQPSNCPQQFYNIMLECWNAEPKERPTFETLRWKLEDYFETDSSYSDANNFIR
# UniProt P22607, sequence (whole entry, looked up): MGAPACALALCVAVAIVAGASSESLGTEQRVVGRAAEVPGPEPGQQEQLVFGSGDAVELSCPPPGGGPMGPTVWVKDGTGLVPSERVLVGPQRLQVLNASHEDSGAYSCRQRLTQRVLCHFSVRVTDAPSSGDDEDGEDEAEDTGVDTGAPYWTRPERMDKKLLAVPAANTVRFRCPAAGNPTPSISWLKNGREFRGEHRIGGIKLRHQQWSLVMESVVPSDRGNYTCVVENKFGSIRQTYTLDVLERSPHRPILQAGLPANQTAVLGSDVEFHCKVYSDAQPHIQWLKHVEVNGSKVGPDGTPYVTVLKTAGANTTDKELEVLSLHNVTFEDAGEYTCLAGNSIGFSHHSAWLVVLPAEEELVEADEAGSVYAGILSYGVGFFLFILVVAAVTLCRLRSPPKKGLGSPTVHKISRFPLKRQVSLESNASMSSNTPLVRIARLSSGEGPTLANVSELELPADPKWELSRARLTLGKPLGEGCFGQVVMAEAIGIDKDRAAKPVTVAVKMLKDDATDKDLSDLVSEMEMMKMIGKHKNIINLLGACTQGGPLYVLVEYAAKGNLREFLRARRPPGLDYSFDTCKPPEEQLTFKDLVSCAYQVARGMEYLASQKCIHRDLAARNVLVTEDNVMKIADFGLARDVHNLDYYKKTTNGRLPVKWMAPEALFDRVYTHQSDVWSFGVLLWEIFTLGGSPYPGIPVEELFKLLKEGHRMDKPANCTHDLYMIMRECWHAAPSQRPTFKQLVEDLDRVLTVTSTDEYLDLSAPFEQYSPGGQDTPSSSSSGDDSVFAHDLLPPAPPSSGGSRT

# Series 1
# Target: vesicular stomatitis virus glycoprotein
# Observed: viral entry
# Method: VSVΔG-G pseudovirus
# Concentration: 10 µM
Compound,inhibition [%]
CC1CN(S(=O)(=O)N2CC=C(c3c[nH]c4ncccc34)CC2)CC(C)O1 (centres unmarked),-10
CCCCN1COc2c(cc(Cl)c3cccnc23)C1,12
Cc1ccc(-c2cc(O)c3c(c2)CN(C(=O)Nc2ccccc2)CCO3)s1,-35
O=C(c1ccc(-c2ccnc3[nH]ccc23)o1)N1CCCCC1,-4.3
CCOC(=O)c1cc(C#N)c(Sc2nnc(SC)s2)nc1C(F)(F)F,29
CC(=O)NC(c1ccc(C)cc1)c1ccc2cccnc2c1O (centres unmarked),26
CCC(NC(=O)Nc1cccc(C)c1C)c1c(-n2cccc2)sc2c1CCN(C)C2 (centres unmarked),10
Cc1cccc(-c2[nH]c(C(C)(C)C)nc2-c2ccc3c(c2)OCO3)n1,-3.6

# Series 2
# SMILES: CCn1cnc2c(Nc3cccc(Cl)c3)nc(N[C@H]3CCCC[C@H]3N)nc21
# Observed: enzyme activity
# Mode: inhibitor
# Concentration: 0.5 µM
# Reference: control
target,remaining activity [%]
"TAOK2 (Homo sapiens, UniProt Q9UL54)",101
"ARAF (Homo sapiens, UniProt P10398)",116
"CSNK1G2 (Homo sapiens, UniProt P78368)",69.5
"FGFR3 (Homo sapiens, UniProt P22607)",90.4
"ACVR1B (Homo sapiens, UniProt P36896)",110
"MAP3K14 (Homo sapiens, UniProt Q99558)",85.1
"FRK (Homo sapiens, UniProt P42685)",87.7

# Other studies, line by line
# CDPK1: Calcium-dependent protein kinase 1 (CDPK1, Plasmodium falciparum, UniProt P62344)
# UniProt P62344, sequence (whole entry, looked up): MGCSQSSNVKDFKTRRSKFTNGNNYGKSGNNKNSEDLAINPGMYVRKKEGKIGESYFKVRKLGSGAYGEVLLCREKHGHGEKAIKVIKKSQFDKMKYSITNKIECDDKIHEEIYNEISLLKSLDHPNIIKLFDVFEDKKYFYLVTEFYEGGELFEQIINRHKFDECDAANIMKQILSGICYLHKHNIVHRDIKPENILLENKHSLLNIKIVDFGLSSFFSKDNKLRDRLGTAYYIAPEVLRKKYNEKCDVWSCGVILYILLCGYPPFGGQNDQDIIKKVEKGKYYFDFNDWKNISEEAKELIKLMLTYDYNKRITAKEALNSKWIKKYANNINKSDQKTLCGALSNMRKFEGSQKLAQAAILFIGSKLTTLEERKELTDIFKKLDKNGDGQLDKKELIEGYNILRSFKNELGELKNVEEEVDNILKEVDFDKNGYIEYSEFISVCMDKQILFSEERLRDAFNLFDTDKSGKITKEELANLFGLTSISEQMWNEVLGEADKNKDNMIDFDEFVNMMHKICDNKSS
SMILES,target,test,setting,how to read,measurement,value
CS(=O)(=O)c1cc(C2(NC(=O)c3cncc4c3cnn4-c3ccc(F)cc3)CC2)ccn1,CDPK1,"cell-free assay, competition with immobilised ligand",1 µM,,remaining binding,99%
O=C(O)C1CCN1 (centres unmarked),"Diamine acetyltransferase 1 (Homo sapiens, UniProt P21673)",inhibitor,10 µM,reference: control,remaining activity,114%
CS(=O)(=O)NCC[C@H](NC(=O)c1cncc2c1cnn2-c1ccc(F)cc1)c1ccnc(S(C)(=O)=O)c1,"CRK2 (Plasmodium falciparum, UniProt P61075)","cell-free assay, competition with immobilised ligand",1 µM,,remaining binding,100%
Cc1c(N2CCCC2)nc2ccc(Br)cc2c1C(=O)NC[C@H](CCC(=O)O)c1ccccc1Cl,"HTR1A (Homo sapiens, UniProt P08908)",cell-free assay,10 µM,,inhibition,5.62%
O=C(NC[C@@H]1[C@H]2CN(C(=O)OCc3cc(C(F)(F)F)cc(C(F)(F)F)c3)C[C@@H]12)c1ccc2[nH]nnc2c1,CDPK1,"cell-free assay, competition with immobilised ligand",1 µM,,remaining binding,99%
